Assay results of several laboratories.
A part holds a random share of what one study measured. Values joined by “and” are separate records of one study, mostly repeats; a detail may differ.
UniProt P42680, sequence (whole entry, looked up): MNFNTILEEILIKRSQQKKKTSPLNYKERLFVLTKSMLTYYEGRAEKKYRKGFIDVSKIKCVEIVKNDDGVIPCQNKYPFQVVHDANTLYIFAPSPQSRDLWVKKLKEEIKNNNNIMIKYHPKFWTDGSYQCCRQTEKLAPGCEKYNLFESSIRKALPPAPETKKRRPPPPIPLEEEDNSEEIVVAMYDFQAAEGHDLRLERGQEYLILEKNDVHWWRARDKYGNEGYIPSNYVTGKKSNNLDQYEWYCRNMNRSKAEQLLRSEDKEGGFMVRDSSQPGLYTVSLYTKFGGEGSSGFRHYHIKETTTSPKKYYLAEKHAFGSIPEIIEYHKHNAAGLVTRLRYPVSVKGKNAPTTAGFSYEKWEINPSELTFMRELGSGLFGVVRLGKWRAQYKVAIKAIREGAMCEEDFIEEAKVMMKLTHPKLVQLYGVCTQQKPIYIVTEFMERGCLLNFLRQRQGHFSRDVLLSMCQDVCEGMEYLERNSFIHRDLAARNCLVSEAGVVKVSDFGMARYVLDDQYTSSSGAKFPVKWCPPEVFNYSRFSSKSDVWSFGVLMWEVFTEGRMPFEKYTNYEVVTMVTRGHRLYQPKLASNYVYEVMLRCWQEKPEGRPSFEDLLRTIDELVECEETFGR
UniProt Q05513, sequence (whole entry, looked up): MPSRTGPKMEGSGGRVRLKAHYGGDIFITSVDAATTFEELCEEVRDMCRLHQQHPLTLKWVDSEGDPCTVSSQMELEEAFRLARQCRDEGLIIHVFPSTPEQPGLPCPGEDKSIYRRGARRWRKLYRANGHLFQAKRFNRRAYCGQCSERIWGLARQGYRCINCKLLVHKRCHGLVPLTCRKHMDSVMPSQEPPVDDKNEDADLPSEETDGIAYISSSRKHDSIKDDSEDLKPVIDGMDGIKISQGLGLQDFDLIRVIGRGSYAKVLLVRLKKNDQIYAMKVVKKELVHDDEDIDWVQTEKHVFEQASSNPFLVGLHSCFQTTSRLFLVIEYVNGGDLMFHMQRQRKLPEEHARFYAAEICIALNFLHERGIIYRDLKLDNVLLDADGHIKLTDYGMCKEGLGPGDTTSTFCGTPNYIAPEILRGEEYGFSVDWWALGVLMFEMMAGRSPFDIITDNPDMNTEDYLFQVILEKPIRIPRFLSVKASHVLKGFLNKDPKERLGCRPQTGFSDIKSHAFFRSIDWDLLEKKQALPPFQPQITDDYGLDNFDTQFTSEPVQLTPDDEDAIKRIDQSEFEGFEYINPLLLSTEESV
UniProt Q13153, sequence (whole entry, looked up): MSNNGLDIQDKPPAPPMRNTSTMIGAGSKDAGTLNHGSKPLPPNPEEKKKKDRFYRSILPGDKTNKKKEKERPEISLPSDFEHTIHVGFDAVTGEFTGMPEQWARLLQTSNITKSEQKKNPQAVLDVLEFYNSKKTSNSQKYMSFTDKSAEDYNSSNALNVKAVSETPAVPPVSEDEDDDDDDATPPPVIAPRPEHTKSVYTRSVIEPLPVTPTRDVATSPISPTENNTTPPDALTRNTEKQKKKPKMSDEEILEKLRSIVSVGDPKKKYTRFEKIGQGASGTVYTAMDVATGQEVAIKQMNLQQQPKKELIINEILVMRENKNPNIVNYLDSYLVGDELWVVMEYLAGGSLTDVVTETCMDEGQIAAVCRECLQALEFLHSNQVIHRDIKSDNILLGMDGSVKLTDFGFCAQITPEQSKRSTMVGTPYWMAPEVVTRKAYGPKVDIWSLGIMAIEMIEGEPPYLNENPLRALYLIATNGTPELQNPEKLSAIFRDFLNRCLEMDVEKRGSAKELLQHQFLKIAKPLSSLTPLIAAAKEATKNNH
UniProt Q14012, sequence (whole entry, looked up): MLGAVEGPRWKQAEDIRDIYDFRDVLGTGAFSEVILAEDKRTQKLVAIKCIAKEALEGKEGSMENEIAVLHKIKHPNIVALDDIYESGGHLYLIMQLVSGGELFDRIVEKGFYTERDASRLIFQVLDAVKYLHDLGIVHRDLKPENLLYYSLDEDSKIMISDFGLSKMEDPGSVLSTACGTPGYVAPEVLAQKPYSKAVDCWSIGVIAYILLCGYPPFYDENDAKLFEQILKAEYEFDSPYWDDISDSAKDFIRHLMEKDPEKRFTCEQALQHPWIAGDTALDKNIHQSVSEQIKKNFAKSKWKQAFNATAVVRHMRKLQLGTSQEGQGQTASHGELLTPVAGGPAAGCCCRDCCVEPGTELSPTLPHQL
UniProt Q06418, sequence (whole entry, looked up): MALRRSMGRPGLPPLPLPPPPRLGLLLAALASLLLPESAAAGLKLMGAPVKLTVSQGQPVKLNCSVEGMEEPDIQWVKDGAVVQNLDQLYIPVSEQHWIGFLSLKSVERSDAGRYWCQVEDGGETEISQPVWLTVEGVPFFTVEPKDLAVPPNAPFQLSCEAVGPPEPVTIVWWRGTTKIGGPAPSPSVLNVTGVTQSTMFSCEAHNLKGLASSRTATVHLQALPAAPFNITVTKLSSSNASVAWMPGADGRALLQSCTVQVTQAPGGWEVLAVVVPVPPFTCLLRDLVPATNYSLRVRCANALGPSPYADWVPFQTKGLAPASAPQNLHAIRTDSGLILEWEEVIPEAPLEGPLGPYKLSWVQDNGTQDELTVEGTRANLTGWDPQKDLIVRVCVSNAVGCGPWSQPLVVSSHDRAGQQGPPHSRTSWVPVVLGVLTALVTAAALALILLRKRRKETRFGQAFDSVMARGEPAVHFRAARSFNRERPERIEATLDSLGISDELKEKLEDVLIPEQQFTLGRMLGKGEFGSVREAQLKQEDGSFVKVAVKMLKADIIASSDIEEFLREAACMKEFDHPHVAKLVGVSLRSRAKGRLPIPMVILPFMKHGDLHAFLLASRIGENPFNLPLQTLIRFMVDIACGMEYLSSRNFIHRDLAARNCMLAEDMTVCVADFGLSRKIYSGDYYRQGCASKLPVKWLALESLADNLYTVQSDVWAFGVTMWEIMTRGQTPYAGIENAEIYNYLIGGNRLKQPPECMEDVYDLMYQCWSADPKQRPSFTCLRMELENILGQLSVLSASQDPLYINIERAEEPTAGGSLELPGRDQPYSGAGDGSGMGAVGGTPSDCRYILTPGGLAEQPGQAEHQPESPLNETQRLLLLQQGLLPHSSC
UniProt Q96SB4, sequence (whole entry, looked up): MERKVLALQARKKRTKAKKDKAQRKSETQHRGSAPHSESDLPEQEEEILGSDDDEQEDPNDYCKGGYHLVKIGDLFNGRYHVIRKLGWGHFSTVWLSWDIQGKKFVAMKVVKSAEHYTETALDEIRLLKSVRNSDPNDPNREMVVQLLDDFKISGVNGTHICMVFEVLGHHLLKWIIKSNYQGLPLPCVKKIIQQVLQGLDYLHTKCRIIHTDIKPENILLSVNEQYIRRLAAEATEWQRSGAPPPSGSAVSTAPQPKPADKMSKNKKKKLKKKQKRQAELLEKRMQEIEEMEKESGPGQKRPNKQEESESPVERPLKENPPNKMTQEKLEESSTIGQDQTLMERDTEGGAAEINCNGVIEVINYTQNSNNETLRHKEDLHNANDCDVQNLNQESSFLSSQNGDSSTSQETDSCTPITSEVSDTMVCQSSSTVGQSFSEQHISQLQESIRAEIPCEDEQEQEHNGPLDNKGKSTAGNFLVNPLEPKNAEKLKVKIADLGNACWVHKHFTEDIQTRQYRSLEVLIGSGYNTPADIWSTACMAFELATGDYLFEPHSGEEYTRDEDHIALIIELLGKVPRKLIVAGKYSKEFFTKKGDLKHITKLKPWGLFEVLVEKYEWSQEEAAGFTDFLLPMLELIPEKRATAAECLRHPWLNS
UniProt Q9HBY8, sequence (whole entry, looked up): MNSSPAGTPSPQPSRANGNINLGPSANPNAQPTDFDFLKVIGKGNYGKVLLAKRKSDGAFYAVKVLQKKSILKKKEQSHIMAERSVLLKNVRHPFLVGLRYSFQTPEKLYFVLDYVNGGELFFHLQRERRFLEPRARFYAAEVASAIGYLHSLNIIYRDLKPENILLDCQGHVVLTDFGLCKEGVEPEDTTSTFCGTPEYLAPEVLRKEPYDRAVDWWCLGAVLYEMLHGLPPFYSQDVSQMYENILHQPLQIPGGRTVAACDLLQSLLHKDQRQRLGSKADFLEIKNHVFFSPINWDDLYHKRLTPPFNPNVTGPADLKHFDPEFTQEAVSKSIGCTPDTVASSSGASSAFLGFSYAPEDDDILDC
UniProt P49760, sequence (whole entry, looked up): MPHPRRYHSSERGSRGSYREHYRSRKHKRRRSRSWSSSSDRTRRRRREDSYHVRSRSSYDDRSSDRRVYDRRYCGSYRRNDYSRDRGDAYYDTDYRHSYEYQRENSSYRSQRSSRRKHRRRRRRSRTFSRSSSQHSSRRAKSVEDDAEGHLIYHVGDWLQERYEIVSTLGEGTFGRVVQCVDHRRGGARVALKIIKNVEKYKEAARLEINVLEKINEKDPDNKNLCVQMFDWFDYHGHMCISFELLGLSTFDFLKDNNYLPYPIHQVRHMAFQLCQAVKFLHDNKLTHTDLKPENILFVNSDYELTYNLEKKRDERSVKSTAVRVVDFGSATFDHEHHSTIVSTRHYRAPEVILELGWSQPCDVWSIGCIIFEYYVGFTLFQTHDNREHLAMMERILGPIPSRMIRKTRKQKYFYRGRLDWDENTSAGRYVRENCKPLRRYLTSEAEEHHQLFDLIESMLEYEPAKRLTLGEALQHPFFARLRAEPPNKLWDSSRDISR

Block 1 — cell line: HaCaT; tested at: 100 µM; time: 18 h; measurement: viability
OC[C@@H](O)[C@@H](O)[C@H](O)[C@@H](O)CO: 111%
C[C@]12CCC(=O)C=C1[C@@H]1C[C@@H]1[C@H]1[C@@H]3[C@@H]4C[C@@H]4[C@@]4(CCC(=O)O4)[C@@]3(C)CC[C@@H]12: 82.7%
CS(=O)(=O)c1ccc([C@@H](O)[C@@H](CO)NC(=O)C(Cl)Cl)cc1: 137%
CCN(CC)Cc1cc(Nc2ccnc3cc(Cl)ccc23)ccc1O: 82.7%
O=c1ccc2ccc(O)c(O)c2o1: 75.8%

Block 2 — cell line: mouse MPNST tumor cells; technique: high-content nuclear imaging; measured: cell number; tested at: 10 µM; time: 12 h; notes: mean of 2 replicates; relative to: plate mean; reading: higher = more cells; measurement: nuclei count
Cc1onc(-c2c(F)cccc2Cl)c1C(=O)N[C@@H]1C(=O)N2[C@@H]1SC(C)(C)[C@@H]2C(=O)O: 1.66 z-score
NCc1ccccc1CC(=O)N[C@@H]1C(=O)N2C(C(=O)O)=C(CSc3nnnn3CC(=O)O)CS[C@H]12: -0.692 z-score
CC1=Nc2ccc(Cl)cc2S(=O)(=O)N1: 1.4 z-score and 0.634 z-score and 1.27 z-score
CN[C@@H]1[C@@H](O[C@H]2O[C@H](CO)[C@@H](N)[C@H](O)[C@H]2O)OC2C[C@@H](N)[C@@H](O[C@H]3[C@H](O)[C@@H](O)[C@H](N)C[C@@H]3N)OC2[C@@H]1O (stereo partly shown): 4.7 z-score
COCCCC/C(=N\OCCN)c1ccc(C(F)(F)F)cc1: 2.16 z-score
COc1cc(OC)cc(C(=O)NNC(=O)Nc2cccc3ccccc23)c1: 0.854 z-score
CC[C@H]1OC(=O)[C@H](C)[C@@H](O[C@H]2C[C@@](C)(OC)[C@@H](O)[C@H](C)O2)[C@H](C)[C@@H](O[C@@H]2O[C@H](C)C[C@H](N(C)C)[C@H]2O)[C@](C)(O)C[C@@H](C)/C(=N\OCOCCOC)[C@H](C)[C@@H](O)[C@]1(C)O: 0.926 z-score
COc1cc(N2CCOCC2)ccc1Nc1ncc(Cl)c(Nc2ccccc2NS(C)(=O)=O)n1: 1.47 z-score
CC(=O)[C@@]12O[C@](C)(c3ccccc3)O[C@@H]1C[C@H]1[C@@H]3CCC4=CC(=O)CC[C@]4(C)[C@H]3CC[C@@]12C: 2.29 z-score
c1ccc(C(NCCNC(c2ccccc2)c2ccccc2)c2ccccc2)cc1: 3 z-score

Block 3 — species: human; medium: microsomes or S9; tested at: 2 µM; time: 0.5 h; measurement: remaining compound
O=C(Cn1ncc2ccccc2c1=O)NCCn1nc2c(cc1=O)CCCCC2: 41%
CC1CC(C)CC(NC(=O)c2coc(CS(C)(=O)=O)n2)C1 (stereo not shown): 62.4%
Cc1[nH]c(=O)[nH]c(=O)c1S(=O)(=O)N1CCC(C(=O)NCCC(C)C)CC1: 78.2%
CCC1CCCCN1Cc1ccc(CNC(=O)c2noc3c2CCc2sccc2-3)o1 (stereo not shown): 1.3%
Nc1ccc2nc(CCCc3nc4ccc(N)cc4s3)sc2c1: 79%
Cc1ccc(C2C(C(=O)NC3CCCCC3)CCC(=O)N2C)cc1 (stereo not shown): 7.66%

Block 4 — observed: enzyme activity; action: inhibitor; tested at: 0.5 µM; relative to: control; measurement: remaining activity
Compound: CSc1nc(-c2ccnc(N[C@@H](C)c3ccccc3)c2)c(-c2ccc(F)cc2)[nH]1 (racemic)
Ribosomal protein S6 kinase alpha-3 (RPS6KA3, Homo sapiens, UniProt P51812): 91%
Cyclin-dependent kinase 2, with cyclin E (CDK2, Homo sapiens, UniProt P24941): 88%
Mitogen-activated protein kinase kinase kinase 20 (MAP3K20, Homo sapiens, UniProt Q9NYL2): 85.7%
Serine/threonine-protein kinase PAK 1 (PAK1, Homo sapiens, UniProt Q13153): 97.7%
Vascular endothelial growth factor receptor 1 (FLT1, Homo sapiens, UniProt P17948): 71.5%
Tyrosine-protein kinase JAK1 (JAK1, Homo sapiens, UniProt P23458): 104%
Ephrin type-A receptor 2 (EPHA2, Homo sapiens, UniProt P29317): 98.8%
Serine/threonine-protein kinase PAK 6 (PAK6, Homo sapiens, UniProt Q9NQU5): 93.5%
Muscle, skeletal receptor tyrosine-protein kinase (MUSK, Homo sapiens, UniProt O15146): 101%
Tyrosine-protein kinase receptor TYRO3 (TYRO3, Homo sapiens, UniProt Q06418): 108%
Serine/threonine-protein kinase SIK2 (SIK2, Homo sapiens, UniProt Q9H0K1): 97.2%
Ephrin type-A receptor 6 (EPHA6, Homo sapiens, UniProt Q9UF33): 75.8%
Tyrosine-protein kinase Tec (TEC, Homo sapiens, UniProt P42680): 120%
Casein kinase I isoform epsilon (CSNK1E, Homo sapiens, UniProt P49674): 72%
SRSF protein kinase 1 (SRPK1, Homo sapiens, UniProt Q96SB4): 106%
Dual specificity protein kinase CLK2 (CLK2, Homo sapiens, UniProt P49760): 102%
Casein kinase I isoform delta (CSNK1D, Homo sapiens, UniProt P48730): 41.9%
Serine/threonine-protein kinase Sgk2 (SGK2, Homo sapiens, UniProt Q9HBY8): 96.1%
Calcium/calmodulin-dependent protein kinase type 1 (CAMK1, Homo sapiens, UniProt Q14012): 96.2%
Calcium/calmodulin-dependent protein kinase kinase 1 (CAMKK1, Homo sapiens, UniProt Q8N5S9): 104%
Protein kinase C zeta type (PRKCZ, Homo sapiens, UniProt Q05513): 111%
Insulin-like growth factor 1 receptor (IGF1R, Homo sapiens, UniProt P08069): 101%
Protein kinase C theta type (PRKCQ, Homo sapiens, UniProt Q04759): 111%

Further values, each from its own experiment
ADRA2A: Alpha-2A adrenergic receptor (ADRA2A, Homo sapiens, UniProt P08913)
UniProt P08913, sequence (whole entry, looked up): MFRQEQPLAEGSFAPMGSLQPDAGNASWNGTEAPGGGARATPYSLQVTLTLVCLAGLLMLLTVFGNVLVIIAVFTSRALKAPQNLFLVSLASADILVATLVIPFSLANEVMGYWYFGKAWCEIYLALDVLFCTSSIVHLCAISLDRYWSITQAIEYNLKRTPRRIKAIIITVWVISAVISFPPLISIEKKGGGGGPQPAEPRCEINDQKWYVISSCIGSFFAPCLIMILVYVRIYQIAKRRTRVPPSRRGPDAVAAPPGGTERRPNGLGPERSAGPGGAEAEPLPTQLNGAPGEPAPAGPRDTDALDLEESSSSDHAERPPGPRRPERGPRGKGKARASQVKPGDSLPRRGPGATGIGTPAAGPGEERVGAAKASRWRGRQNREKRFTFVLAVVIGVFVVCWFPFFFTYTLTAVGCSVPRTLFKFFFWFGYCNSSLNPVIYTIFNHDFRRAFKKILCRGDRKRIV
CN(C)C(=O)/C(C#N)=C/c1ccc(-c2nc3cnc4[nH]ccc4c3n2C2CCCCC2)o1 — viability (normal-adjacent epithelium patient-derived organoids sample E; CellTiter-Glo; 0.1 µM; relative to: DMSO): 92.9% and 97.5%
CC(C)n1cnc(-c2ccc(F)cc2)c1-c1ncc(C(=O)Nc2ccc(N3CCN(C)CC3)cc2)[nH]1 — patients with muscular weakness (human, idiopathic pulmonary fibrosis; 60 mg once daily, trial, treatment-emergent): 0%
O=C(NNS(=O)(=O)c1ccccc1)c1cc(-c2ccnnc2)ccc1F — Ki (ADRA2A; binding, radioligand binding): > 10 µM
c1ccc(Oc2ccc(Nc3c4c(nc5ccccc35)CCC4)cc2)cc1 — parasite load (Leishmania infantum; qPCR; MHOM/BR/1972/BH46, golden hamster, chronic infection, spleen; oral, 10 mg/kg/day, 10 days, added: glucantime 50 mg/kg/day i.p.): 572 amastigotes/g tissue and 100 amastigotes/g tissue and 65.8 amastigotes/g tissue and 58.5 amastigotes/g tissue and 63.3 amastigotes/g tissue and 112 amastigotes/g tissue
N#CN1CC[C@@H](C(=O)Nc2nc3c(s2)CN(C(=O)CN=[N+]=[N-])CC3)C1 — Ki (ADRA2A; binding, radioligand binding): > 10 µM

Excerpt of the above (block 4):
Serine/threonine-protein kinase PAK 1 (PAK1, Homo sapiens, UniProt Q13153): 97.7%
Vascular endothelial growth factor receptor 1 (FLT1, Homo sapiens, UniProt P17948): 71.5%
Tyrosine-protein kinase JAK1 (JAK1, Homo sapiens, UniProt P23458): 104%
Ephrin type-A receptor 2 (EPHA2, Homo sapiens, UniProt P29317): 98.8%
Serine/threonine-protein kinase PAK 6 (PAK6, Homo sapiens, UniProt Q9NQU5): 93.5%
Muscle, skeletal receptor tyrosine-protein kinase (MUSK, Homo sapiens, UniProt O15146): 101%
Tyrosine-protein kinase receptor TYRO3 (TYRO3, Homo sapiens, UniProt Q06418): 108%
Serine/threonine-protein kinase SIK2 (SIK2, Homo sapiens, UniProt Q9H0K1): 97.2%
